{"data": "Measurements from different studies", "note": "A part holds a random share of what one study measured. Substitutions count along the parent as printed."}
{"data": "Set 1", "target": "Ras GTPase-activating protein-binding protein 1, RRM domain (G3BP1, Homo sapiens, UniProt Q13283)", "method": "RNA Bind-n-Seq", "molecule type": "RNA", "sample": "in vitro", "tested at": "1 µM", "notes": "whole 134-nt RNA, ends assumed", "with": "150 mM KCl", "baseline": "input library", "reading": "higher = stronger binding", "chain of UniProt Q13283 (whole entry, looked up)": "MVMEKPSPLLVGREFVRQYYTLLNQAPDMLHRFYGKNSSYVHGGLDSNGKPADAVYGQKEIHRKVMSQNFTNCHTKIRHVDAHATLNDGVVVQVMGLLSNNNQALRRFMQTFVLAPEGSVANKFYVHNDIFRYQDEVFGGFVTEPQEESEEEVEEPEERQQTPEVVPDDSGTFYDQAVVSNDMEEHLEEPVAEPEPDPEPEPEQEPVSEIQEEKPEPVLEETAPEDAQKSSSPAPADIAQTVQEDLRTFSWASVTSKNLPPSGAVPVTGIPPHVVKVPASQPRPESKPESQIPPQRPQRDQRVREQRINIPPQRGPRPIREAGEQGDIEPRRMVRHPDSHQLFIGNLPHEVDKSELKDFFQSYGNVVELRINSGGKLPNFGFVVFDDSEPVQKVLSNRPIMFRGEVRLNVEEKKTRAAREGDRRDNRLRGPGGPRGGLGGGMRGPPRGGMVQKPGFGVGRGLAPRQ"}
{"Strand": "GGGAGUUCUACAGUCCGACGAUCCAAGUCCUGUGCUACACAUCGUAUGUACCGAAUCGGGGAAGGGGAAGGGGAAGGGAAAGUAUUAUGUUACGCCGUUCGGAUCUGCACUUCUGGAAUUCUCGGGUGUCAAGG", "log2 enrichment": 1.01}
{"Strand": "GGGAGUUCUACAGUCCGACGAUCUGGAACAGCAGCUGCCACUCAGGCGUAAUUCCCACCUAGAGGAGAGUUUCACAUCCACCGAAGAAUCUUCCGAAGAAAAUGUCAACUUUUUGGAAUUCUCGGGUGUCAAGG", "log2 enrichment": 0.0171}
{"Strand": "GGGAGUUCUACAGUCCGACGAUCCCUCAAGUCCUGUGCUACACAUCGUAUGUACCGAAUCGGAAGGAAGGAAGGGGAAAGUAUUAUGUUACGCCGUUCGGAUCUGCACUUCCAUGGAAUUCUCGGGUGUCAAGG", "log2 enrichment": -0.252}
{"Strand": "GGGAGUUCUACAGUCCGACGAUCAGUCCUGUGCUACACAUCGUAUGUACCGAAUCGGGAAAAAGGAAAAAGGGAAAAAGGAAAGUAUUAUGUUACGCCGUUCGGAUCUGCACUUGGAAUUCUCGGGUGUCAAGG", "log2 enrichment": -0.11}
{"Strand": "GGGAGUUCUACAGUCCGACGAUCAGUCCUGUGCUACACAUCGUAUGUACCGAAUCGGGAAAAAGGGUGGGUUUUUUUGGGAAAGUAUUAUGUUACGCCGUUCGGAUCUGCACUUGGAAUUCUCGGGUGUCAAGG", "log2 enrichment": 0.548}
{"Strand": "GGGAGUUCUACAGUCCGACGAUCCUCAAGUCCUGUGCUACACAUCGUAUGUACCGAAUCGGGGAGGGGAGGAGGGGAAAGUAUUAUGUUACGCCGUUCGGAUCUGCACUUCCAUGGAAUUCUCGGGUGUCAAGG", "log2 enrichment": 0.252}
{"Strand": "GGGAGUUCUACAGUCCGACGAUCUCAAGUCCUGUGCUACACAUCGUAUGUACCGAAUCGGGGUGGGGAGGGGUGGGGAAAGUAUUAUGUUACGCCGUUCGGAUCUGCACUUCCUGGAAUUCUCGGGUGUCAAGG", "log2 enrichment": 0.491}
{"Strand": "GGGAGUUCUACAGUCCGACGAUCCAAGUCCUGUGCUACACAUCGUAUGUACCGAAUCGGGAAAAAGGGAAAGGGUGGGAAAGUAUUAUGUUACGCCGUUCGGAUCUGCACUUCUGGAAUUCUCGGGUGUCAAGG", "log2 enrichment": 0.959}
{"Strand": "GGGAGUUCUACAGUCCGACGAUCAGUCCUGUGCUACACAUCGUAUGUACCGAAUCGGUUUUUGGGGUUUUUGGGUUUUUGGAAAGUAUUAUGUUACGCCGUUCGGAUCUGCACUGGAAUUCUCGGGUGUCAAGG", "log2 enrichment": -0.142}
{"data": "Set 2", "target": "CCNB1, cyclin fold, Cln2 fusion (human)", "method": "yeast growth competition, sequencing", "sample": "yeast", "notes": "weak parent motif", "baseline": "not given", "reading": "higher = stronger binding", "starting sequence": "SCAPER docking peptide (human); SNARRSLNFGGST"}
{"Variant": "SNARRSLVFGGST [N8V]", "normalised enrichment score": -0.113}
{"Variant": "SNARRSLNFGYST [G11Y]", "normalised enrichment score": 0.546}
{"Variant": "SNAMRSLNFGGST [R4M]", "normalised enrichment score": -0.283}
{"Variant": "PNARRSLNFGGST [S1P]", "normalised enrichment score": 0.131}
{"Variant": "SNARRSLNGGGST [F9G]", "normalised enrichment score": -0.424}
{"Variant": "SNARRSLNFGDST [G11D]", "normalised enrichment score": 0.767}
{"Variant": "SNARRSRNFGGST [L7R]", "normalised enrichment score": 0.0643}
{"Variant": "SNATRSLNFGGST [R4T]", "normalised enrichment score": 0.351}
{"Variant": "SNARRSLHFGGST [N8H]", "normalised enrichment score": 0.552}
{"Variant": "SNARKSLNFGGST [R5K]", "normalised enrichment score": -0.246}
{"Variant": "SNARRLLNFGGST [S6L]", "normalised enrichment score": 0.801}
{"Variant": "SNARRSLNFGGLT [S12L]", "normalised enrichment score": 0.855}
{"Variant": "SNARRSLCFGGST [N8C]", "normalised enrichment score": 0.0533}
{"Variant": "SNARRSLNNGGST [F9N]", "normalised enrichment score": -0.104}
{"Variant": "SNCRRSLNFGGST [A3C]", "normalised enrichment score": 0.376}
{"Variant": "SNRRRSLNFGGST [A3R]", "normalised enrichment score": 0.596}
{"data": "Set 3", "target": "Sal-like protein 4, full length isoform A (SALL4, Homo sapiens, UniProt Q9UJQ4, residues 1-1053)", "method": "universal PBM", "molecule type": "double-stranded DNA, one strand shown", "sample": "in vitro", "tested at": "600 nM", "notes": "8-mer, flanks averaged, mean of replicates", "reading": "higher = stronger binding", "chain of UniProt Q9UJQ4 (whole entry, looked up)": "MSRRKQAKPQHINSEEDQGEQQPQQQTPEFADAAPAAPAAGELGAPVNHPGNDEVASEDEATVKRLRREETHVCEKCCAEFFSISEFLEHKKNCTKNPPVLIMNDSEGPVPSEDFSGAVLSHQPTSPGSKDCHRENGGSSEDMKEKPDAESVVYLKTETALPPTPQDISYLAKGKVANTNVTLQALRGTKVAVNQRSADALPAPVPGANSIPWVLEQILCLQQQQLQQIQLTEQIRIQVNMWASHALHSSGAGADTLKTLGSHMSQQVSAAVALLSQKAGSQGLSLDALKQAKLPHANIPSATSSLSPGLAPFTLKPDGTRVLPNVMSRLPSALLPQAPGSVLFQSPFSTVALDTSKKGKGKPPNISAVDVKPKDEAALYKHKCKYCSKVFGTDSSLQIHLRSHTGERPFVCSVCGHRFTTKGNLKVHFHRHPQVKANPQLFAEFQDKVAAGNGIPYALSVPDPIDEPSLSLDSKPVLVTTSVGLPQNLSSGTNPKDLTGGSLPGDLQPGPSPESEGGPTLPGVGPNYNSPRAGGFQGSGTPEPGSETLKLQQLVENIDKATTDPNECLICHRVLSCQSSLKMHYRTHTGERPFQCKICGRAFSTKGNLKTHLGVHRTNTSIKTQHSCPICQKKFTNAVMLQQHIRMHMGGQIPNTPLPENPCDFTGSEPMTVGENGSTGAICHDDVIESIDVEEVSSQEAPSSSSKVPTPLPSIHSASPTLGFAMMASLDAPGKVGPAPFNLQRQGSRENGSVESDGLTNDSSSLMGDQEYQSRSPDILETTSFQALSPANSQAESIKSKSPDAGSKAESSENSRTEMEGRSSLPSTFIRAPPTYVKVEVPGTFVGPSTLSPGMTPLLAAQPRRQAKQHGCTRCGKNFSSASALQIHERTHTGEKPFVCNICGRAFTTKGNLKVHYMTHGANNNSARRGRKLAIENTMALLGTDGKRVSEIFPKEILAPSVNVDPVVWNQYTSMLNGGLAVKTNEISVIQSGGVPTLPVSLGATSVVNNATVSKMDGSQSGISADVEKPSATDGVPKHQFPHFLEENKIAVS"}
{"Strand": "GGGCATGA", "E-score": -0.237}
{"Strand": "CTATACTC", "E-score": 0.0635}
{"Strand": "ACTCGTCA", "E-score": -0.0111}
{"Strand": "ATCAGGGA", "E-score": 0.00315}
{"Strand": "ATTGCTTC", "E-score": 0.112}
{"Strand": "ACACTAAC", "E-score": 0.0626}
{"Strand": "ATGGCATC", "E-score": 0.0419}
{"Strand": "CCAGCCCC", "E-score": -0.257}
{"Strand": "GACTTCCA", "E-score": -0.163}
{"Strand": "CCGGGACC", "E-score": -0.395}
{"Strand": "ACGGCTTC", "E-score": -0.162}
{"Strand": "AAGTTTTG", "E-score": 0.119}
{"Strand": "AGTAACTG", "E-score": 0.137}
{"Strand": "AACCACAG", "E-score": -0.0762}
{"Strand": "GTAACTAC", "E-score": 0.113}
{"Strand": "TAGGTCGA", "E-score": -0.032}
{"Strand": "GGAATACC", "E-score": -0.0185}
{"Strand": "AGTCAACC", "E-score": -0.0997}
{"Strand": "AGTGAGCA", "E-score": 0.0161}
{"Strand": "GACTAAGA", "E-score": -0.00517}
{"Strand": "CTCCGCAC", "E-score": -0.285}
{"Strand": "GACGATAC", "E-score": -0.0301}
{"Strand": "GACAGACA", "E-score": 0.00104}
{"Strand": "ACCTATTA", "E-score": 0.174}
{"Strand": "AGCGAGCC", "E-score": -0.236}
{"data": "Set 4", "target": "RNA binding protein fox-1 homolog 2, RRM domain, GST-SBP tag (RBFOX2, Homo sapiens, UniProt O43251-10, residues 100-194)", "method": "RNA Bind-n-Seq", "molecule type": "RNA", "sample": "in vitro", "tested at": "365 nM", "notes": "natural RNA segment, single round, ends assumed", "baseline": "no-protein control", "reading": "higher = stronger binding", "Target sequence (chain)": "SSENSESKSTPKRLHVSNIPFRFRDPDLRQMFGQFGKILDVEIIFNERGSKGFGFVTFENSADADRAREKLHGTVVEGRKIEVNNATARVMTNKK"}
{"Strand": "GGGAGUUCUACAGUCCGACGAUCAGAGAUCGGAGUUUGACUAGGUUUCCUGUCUGCAAGUCAAUUUUUUUUGUGAAAUUAUCUUGAUUUACAACGUGGUAUUGUAUUUUACAGAGUUCAUGAAGCCCCAAACAUGGAAUUCUCGGGUGCCAA", "RBNS enrichment (R)": 0.58}
{"Strand": "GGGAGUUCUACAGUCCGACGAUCAGUCUGCUGCAAACCAGUCUGGCCAGCACAGCAACCGCCCAUUGAGGACUUUCUUAAAGCUACUGGGCUGGAGGUCCUUUCCCACUCCUUUGUCCUUUGCUUGGCCUAAGUGGAAUUCUCGGGUGCCAA", "RBNS enrichment (R)": 0.317}
{"Strand": "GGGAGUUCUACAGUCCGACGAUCUAGUGACAUUAGGCAGAAAUGGCCAGUCAAACACAUAGCAGUGUUCCAUAGACUUGGUAGAAUGGUCUAUUUUUAAUACCUGUUAUGAUUUUGUUUUUUAGGAAAUAUACUGGAAUUCUCGGGUGCCAA", "RBNS enrichment (R)": 0.417}
{"Strand": "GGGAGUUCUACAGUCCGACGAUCGGUACUCCUAUGCAAUAUUACUCAGCUUUUUUUAUUGUAAAAAGAAAAAUCAACUCACUGUUCAGUGCUGAGAGGGGAUGUAGGCCCAUGGGCACCUGGCCUCCAGGAGUUGGAAUUCUCGGGUGCCAA", "RBNS enrichment (R)": 0.458}
{"Strand": "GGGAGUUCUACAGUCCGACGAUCCUUAACCUUCUUUCCCAAUGGAGCUUGGGGGACUAUUUAUAGAUUUCAUUUUUCUCACUGAGCCAGUGAUGGUUGCUAUCCUCUAGGAAAAAAAAAGAAACUGGGGUAGGUGGAAUUCUCGGGUGCCAA", "RBNS enrichment (R)": 0.796}
{"Strand": "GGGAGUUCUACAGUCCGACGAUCGCUUUGGCCUGGAAAAUAAGCACUGGCCUGCAUGCCUAGAACCUGAGUGAAGGCAGUCAACAUCCUAGUAUGAAUCAGACCUAGCAGAAAUGUAAAUUAUUUCAAGUACUUGGAAUUCUCGGGUGCCAA", "RBNS enrichment (R)": 1.87}
{"Strand": "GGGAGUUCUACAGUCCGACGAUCAAUCUCUACUCAUCCCUCCUUCCCUAGAGGAGCCUUUGAGGAGCCUCUUUCCUGGGGACAAAAGGCUCUCCUAGACAUGAGUGAGCAGGUAAUCGCCCAACUUGGCUUUGUGGAAUUCUCGGGUGCCAA", "RBNS enrichment (R)": 0.429}
{"Strand": "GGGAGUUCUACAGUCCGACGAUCUAUUUAGAGAAAAGACUUAAUCAAUUAGUAAAUAAAAUUGCCUAUGGCAGGAUUCUUUCUUGAAUUAAUAUUAAUCCUUAAAUUGAUUUUUCUGGGAUUAUACAAAUUCCUGGAAUUCUCGGGUGCCAA", "RBNS enrichment (R)": 0.521}
{"note": "Repeated from above (set 3):"}
{"Strand": "AGTGAGCA", "E-score": 0.0161}
{"Strand": "GACTAAGA", "E-score": -0.00517}
{"Strand": "CTCCGCAC", "E-score": -0.285}
{"Strand": "GACGATAC", "E-score": -0.0301}
{"Strand": "GACAGACA", "E-score": 0.00104}
